Results of several laboratories.
Protocols differ between the studies behind these lines. Several values in a cell are separate wells, animals, samples, runs or records. ± gives the spread as reported.
GHSR: Growth hormone secretagogue receptor type 1 (GHSR, Homo sapiens, UniProt Q92847)
Chain of UniProt Q92847 (whole entry, looked up): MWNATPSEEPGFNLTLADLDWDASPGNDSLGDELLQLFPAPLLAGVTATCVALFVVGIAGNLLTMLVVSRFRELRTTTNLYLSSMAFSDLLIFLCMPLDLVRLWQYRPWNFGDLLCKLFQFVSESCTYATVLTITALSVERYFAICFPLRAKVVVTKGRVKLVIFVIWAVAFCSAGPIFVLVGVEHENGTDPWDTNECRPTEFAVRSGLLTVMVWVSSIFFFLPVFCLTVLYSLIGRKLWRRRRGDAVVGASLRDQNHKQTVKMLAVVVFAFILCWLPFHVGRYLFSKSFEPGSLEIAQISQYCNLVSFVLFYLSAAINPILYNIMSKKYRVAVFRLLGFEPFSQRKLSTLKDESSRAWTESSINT
GUK1: GUK1 (Homo sapiens, UniProt Q16774)
Chain of UniProt Q16774 (whole entry, looked up): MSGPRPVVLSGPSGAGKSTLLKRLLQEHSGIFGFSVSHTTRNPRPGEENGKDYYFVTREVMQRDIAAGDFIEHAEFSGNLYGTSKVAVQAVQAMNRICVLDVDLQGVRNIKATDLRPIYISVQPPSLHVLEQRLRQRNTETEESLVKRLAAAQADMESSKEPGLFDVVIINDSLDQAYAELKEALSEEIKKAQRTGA
BIRC3 BIR1 domain: Baculoviral IAP repeat-containing protein 3, BIR1 domain (BIRC3, Homo sapiens, UniProt Q13489)
TOP2A: DNA topoisomerase 2-alpha (TOP2A, Homo sapiens, UniProt P11388)
Chain of UniProt P11388 (whole entry, looked up): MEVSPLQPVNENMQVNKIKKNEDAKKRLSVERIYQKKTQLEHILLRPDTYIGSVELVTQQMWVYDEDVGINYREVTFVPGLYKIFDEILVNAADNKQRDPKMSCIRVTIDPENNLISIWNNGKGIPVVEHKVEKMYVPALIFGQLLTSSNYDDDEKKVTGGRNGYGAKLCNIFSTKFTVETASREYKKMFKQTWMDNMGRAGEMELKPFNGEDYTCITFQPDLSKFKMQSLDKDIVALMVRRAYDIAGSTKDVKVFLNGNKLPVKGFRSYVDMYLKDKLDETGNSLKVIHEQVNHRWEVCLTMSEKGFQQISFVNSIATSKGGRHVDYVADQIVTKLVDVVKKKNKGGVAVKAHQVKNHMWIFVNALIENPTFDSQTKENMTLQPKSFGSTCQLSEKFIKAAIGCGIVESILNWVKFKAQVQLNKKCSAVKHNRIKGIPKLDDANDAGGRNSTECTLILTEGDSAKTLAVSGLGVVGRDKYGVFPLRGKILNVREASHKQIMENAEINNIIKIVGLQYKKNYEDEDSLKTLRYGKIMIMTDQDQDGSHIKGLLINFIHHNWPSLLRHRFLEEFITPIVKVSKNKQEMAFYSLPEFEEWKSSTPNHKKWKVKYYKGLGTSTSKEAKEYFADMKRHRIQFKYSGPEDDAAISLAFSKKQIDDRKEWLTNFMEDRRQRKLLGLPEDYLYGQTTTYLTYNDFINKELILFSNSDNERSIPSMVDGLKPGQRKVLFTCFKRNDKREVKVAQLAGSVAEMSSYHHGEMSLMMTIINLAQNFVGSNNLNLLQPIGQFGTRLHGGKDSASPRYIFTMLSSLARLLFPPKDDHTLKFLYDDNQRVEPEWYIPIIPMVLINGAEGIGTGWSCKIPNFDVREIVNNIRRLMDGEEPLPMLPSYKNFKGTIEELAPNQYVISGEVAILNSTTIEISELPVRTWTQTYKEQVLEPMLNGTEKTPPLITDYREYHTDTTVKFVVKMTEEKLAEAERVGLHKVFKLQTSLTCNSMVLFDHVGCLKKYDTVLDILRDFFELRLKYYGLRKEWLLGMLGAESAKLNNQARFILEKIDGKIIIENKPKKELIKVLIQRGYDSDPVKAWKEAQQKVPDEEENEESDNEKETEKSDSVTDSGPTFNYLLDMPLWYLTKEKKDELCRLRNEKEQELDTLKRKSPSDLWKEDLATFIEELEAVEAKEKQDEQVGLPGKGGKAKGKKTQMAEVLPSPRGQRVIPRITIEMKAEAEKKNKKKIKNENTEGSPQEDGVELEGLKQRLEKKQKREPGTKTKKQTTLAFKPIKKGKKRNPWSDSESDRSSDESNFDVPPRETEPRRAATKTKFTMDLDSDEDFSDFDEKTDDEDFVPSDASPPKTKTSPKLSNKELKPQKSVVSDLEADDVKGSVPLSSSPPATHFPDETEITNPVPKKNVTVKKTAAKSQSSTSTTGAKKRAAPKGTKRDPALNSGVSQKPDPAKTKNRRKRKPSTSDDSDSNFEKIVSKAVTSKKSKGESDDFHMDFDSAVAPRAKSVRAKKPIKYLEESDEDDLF
HTR2A: 5-hydroxytryptamine receptor 2A (HTR2A, Homo sapiens, UniProt P28223)
Chain of UniProt P28223 (whole entry, looked up): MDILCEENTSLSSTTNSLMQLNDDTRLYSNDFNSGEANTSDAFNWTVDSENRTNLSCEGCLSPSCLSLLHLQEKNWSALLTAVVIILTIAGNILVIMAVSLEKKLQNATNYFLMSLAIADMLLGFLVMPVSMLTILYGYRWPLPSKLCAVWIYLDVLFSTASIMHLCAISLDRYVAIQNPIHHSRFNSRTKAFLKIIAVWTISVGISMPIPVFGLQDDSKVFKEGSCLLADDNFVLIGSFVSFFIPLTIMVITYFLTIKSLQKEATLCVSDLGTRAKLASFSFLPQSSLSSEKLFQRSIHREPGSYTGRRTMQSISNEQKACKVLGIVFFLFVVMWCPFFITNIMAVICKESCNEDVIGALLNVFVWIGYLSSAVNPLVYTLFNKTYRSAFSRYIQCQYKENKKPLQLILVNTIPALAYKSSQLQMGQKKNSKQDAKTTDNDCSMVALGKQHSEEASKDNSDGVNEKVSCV
T1: neomycin riboswitch RNA, 5'-triphosphate, 2',3'-cyclic phosphate; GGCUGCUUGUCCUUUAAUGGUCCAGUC
T2: RNA aptamer; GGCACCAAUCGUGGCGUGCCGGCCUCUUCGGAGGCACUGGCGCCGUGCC
Chain of UniProt P18669 (whole entry, looked up): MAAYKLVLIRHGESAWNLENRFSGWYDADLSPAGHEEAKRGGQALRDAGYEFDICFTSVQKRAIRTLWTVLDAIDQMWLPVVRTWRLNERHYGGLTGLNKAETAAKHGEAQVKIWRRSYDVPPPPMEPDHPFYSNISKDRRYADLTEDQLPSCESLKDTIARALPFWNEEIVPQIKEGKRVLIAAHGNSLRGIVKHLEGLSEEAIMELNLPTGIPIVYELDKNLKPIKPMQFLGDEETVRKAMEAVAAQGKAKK
Chain of UniProt Q64663 (whole entry, unmodified, looked up): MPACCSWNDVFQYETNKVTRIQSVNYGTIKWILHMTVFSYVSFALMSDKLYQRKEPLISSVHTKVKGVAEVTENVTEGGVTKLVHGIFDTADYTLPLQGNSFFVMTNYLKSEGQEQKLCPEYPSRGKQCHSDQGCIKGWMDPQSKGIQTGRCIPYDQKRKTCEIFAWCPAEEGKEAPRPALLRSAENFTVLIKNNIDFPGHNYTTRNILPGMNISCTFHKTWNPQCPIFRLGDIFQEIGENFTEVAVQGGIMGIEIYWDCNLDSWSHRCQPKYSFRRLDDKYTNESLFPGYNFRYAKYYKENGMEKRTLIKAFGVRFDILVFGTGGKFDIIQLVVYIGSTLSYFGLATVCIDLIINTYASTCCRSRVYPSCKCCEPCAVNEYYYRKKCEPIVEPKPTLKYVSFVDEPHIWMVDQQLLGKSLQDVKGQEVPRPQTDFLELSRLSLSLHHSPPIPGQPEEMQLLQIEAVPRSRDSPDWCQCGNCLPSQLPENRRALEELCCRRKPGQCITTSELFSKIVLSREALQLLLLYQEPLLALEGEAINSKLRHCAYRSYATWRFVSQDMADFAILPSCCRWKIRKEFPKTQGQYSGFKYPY
Chain of UniProt P51575 (whole entry, unmodified, looked up): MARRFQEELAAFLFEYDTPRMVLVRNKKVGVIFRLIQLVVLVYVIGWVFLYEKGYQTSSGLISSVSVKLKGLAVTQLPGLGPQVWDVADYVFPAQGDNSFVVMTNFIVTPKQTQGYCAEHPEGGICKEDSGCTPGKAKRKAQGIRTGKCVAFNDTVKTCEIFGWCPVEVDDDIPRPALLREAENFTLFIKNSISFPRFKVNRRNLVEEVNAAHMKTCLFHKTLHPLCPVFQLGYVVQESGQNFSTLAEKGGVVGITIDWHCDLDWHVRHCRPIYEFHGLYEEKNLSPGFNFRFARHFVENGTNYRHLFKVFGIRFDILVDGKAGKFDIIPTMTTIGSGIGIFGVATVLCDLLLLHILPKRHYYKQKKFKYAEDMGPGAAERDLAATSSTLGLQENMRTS
Chain of UniProt Q62351 (whole entry, looked up): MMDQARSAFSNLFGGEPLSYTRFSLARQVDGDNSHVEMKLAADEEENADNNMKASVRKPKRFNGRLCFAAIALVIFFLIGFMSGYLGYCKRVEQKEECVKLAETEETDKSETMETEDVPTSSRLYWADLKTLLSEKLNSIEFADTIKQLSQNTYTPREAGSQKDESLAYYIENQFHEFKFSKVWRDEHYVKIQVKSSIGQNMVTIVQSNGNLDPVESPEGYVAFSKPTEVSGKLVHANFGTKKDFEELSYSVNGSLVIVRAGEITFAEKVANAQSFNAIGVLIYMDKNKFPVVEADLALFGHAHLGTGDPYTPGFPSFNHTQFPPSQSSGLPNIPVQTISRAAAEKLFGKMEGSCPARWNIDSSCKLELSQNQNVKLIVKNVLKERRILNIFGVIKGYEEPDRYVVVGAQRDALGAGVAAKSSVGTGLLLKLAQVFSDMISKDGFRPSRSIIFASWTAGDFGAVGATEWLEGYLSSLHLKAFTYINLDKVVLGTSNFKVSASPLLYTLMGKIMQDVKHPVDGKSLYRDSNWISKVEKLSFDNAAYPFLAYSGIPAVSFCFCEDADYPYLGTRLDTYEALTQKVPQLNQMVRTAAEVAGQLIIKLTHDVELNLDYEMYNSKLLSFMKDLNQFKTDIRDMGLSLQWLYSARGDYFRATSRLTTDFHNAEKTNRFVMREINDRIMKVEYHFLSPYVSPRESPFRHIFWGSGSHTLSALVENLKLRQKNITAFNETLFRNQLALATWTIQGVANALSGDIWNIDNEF
Chain of UniProt Q91XE4 (whole entry, looked up): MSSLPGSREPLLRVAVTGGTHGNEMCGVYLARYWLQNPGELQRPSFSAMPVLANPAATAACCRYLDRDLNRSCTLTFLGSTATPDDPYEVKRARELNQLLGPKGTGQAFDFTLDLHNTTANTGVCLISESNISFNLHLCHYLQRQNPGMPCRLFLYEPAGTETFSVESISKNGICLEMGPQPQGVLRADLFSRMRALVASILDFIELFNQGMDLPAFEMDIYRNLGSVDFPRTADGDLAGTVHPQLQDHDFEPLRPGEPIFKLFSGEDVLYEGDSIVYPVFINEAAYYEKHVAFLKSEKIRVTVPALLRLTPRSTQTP

| SMILES | target | assay | test system | setting | scale | endpoint | value |
| --- | --- | --- | --- | --- | --- | --- | --- |
| Cc1ccc(N2CC(C(N)=O)CC2=O)cc1 (centres unmarked) | Histone acetyltransferase type B catalytic subunit (Homo sapiens, UniProt O14929) | binding, affinity selection mass spectrometry | – | – | reference: other proteins in batch | log fold enrichment | -0.0512 |
| C[C@H](CCC(C)(C)O)[C@H]1CC[C@H]2[C@@H]3CC=C4C[C@@](C)(O)CC[C@]4(C)[C@H]3CC[C@]12C | Glutamate NMDA receptor; GRIN1/GRIN2B (GRIN1/GRIN2B, Homo sapiens, UniProt Q05586+Q13224, R755A) | ion current, positive allosteric modulator, two-electrode voltage clamp | Xenopus oocytes | 10 µM, GluN1-R755A mutant, together with: 100 µM glutamate and glycine | reference: absence of compound | current potentiation | 174 ± 6.1% |
| CN1CCN(c2cc(-c3ccncc3)c(-c3ccc4ccccc4c3)nn2)CC1 | GHSR | agonist, FLIPR | – | 12.5 µM | – | activation | -3.7% |
| CN[C@H](CC(=O)O)C(=O)O | uncharacterized protein (Ixodes scapularis, UniProt A0A0N9E2I2) | L-glutamate-like response, two-electrode voltage clamp | Xenopus laevis oocytes | 100 µM | – | activity | inactive |
| CCN1CCC[C@H]1CNC(=O)c1c(O)c(Cl)cc(Cl)c1OC | Probable G-protein coupled receptor 162 (GPR162, Homo sapiens, UniProt Q16538) | β-arrestin recruitment, TANGO luminescence, item: GPR162 | – | concentration not given | reference: basal luminescence | log2 fold change | 0.53 |
| Cc1cccc(N2CC(C(=O)O)CC2=O)c1 (centres unmarked) | WD repeat-containing protein 55 (WDR55, Homo sapiens, UniProt Q9H6Y2) | binding, affinity selection mass spectrometry | – | – | reference: other proteins in batch | fold enrichment | 0.998 |
| Nc1ncnc2c1ncn2[C@@H]1O[C@H](COP(=O)(O)CP(=O)(O)OP(=O)(O)O)[C@@H](O)[C@H]1O | P2X purinoceptor 1 (P2RX1, Homo sapiens, UniProt P51575, E282A) | saturation binding | HEK293 | 79 nM | – | specific binding | 1500 CCPM and 1910 CCPM |
| Nc1ncnc2c1ncn2[C@@H]1O[C@H](COP(=O)(O)OP(=O)(O)O)[C@@H](O)[C@H]1O | GUK1 | binding, isothermal titration calorimetry | – | molar ratio 0.9041, fitted curve | – | ΔH | -1.57 kcal/mol |
| Clc1cncc(OC[C@@H]2CN(CCN3CCc4ccccc43)CCO2)c1 | 5-hydroxytryptamine receptor 2C (HTR2C, Homo sapiens, UniProt P28335) | radioligand binding | – | concentration not given, together with: [3H]mesulergine | – | inhibition | 4.4% |
| Nc1ncnc2c1ncn2[C@@H]1O[C@H](COP(=O)(O)OP(=O)(O)OP(=O)(O)O)[C@@H](O)[C@H]1O | P2X purinoceptor 7 (P2rx7, Rattus norvegicus, UniProt Q64663) | ion current, agonist, two-electrode voltage clamp | Xenopus laevis oocytes | 37 µM | reference: highest concentration response | normalized current | 0.41 and 0.54 and 0.63 |
| CCCCCC(O)C(CC=O)SC[C@H](NC(C)=O)C(=O)O (some centres unmarked) | N-acyl-aromatic-L-amino acid amidohydrolase (carboxylate-forming) (Acy3, Mus musculus, UniProt Q91XE4) | enzyme activity, substrate, fluorescamine fluorescence | – | without Co2+ | – | Km | 200 µM |
| Cc1ccc(C(=O)Nc2ccc3ccccc3c2)o1 | OTOP1 (Homo sapiens, UniProt Q7RTM1) | proton current, potentiator, whole-cell patch-clamp | HEK-293T | 10 µM, pH 5.5 | reference: current before compound | current potentiation | 1.62 fold |
| O=C(COP(=O)(O)O)[C@@H](O)[C@H](O)[C@H](O)COP(=O)(O)O | Phosphoglycerate mutase 1 (Homo sapiens, UniProt P18669) | activator | – | 0.1562 mM, wild-type enzyme, unit not given | relative to no compound | enzyme activity | 1.91 and 1.71 and 1.67 |
| CC(C)(C)Cn1c(N)nc2ccc(-c3[nH]c(C(C)(C)C)nc3-c3ccc(F)cc3)nc21 | Mitogen-activated protein kinase 12 (MAPK12, Homo sapiens, UniProt P53778) | inhibitor | – | up to 10 µM | – | kinase activity | inactive |
| CC(=O)N[C@H](C(=O)N1C[C@H](O)C[C@H]1C(=O)NCc1ccc(-c2scnc2C)cc1)C(C)(C)SCCCCCCNC(=O)C[C@@H]1N=C(c2ccc(Cl)cc2)c2c(sc(C)c2C)-n2c(C)nnc21 | BRD4/VHL, BD2; with elongins B/C (Homo sapiens, UniProt O60885+P40337, A384K/E383V/K378Q) | ITC | – | concentration not given, 25 °C, ternary complex, together with: BRD4 BD2 | – | binding stoichiometry | 0.7 ± 0.06 |
| CC[C@@H](C)[C@@H](NC(=O)[C@@H](Cc1ccc(O)cc1)NC(=O)[C@H]1CCCN1C(=O)[C@@H](CCCNC(=N)N)NC(=O)[C@H](N)Cc1c[nH]cn1)C(=O)N[C@H](C)C(=O)N[C@H](Cc1c[nH]cn1)C(=O)N[C@H](CCCNC(=N)N)C(=O)N[C@@H](C(=O)N[C@H](Cc1ccc(O)cc1)C(=O)N[C@H](CO)C(=O)N[C@H](Cc1ccccc1)C(N)=O)C(C)C | Transferrin receptor protein 1 (Tfrc, Mus musculus, UniProt Q62351) | flow cytometry | RAW264.7 | 6 h, pH 6, unit not given | reference: 0 h | surface TFRC expression | 0.966 and 0.965 |
| CCS(=O)(=O)N1CC(CC#N)(n2cc(-c3ncnc4[nH]ccc34)cn2)C1 | Alpha-1-acid glycoprotein 1 (ORM1, Homo sapiens, UniProt P02763) | – | – | together with: Co^2+ | – | change in binding constant | -30.1% |
| C[C@]12C[C@H](O)[C@H]3[C@@H](CCC4=CC(=O)CC[C@@]43C)[C@@H]1CC[C@@H]2C(=O)CO | Cytochrome P450 11B2, mitochondrial (CYP11B2, Homo sapiens, UniProt P19099, A320V) | substrate | – | 100 µM, 37 °C, phospholipid vesicles | – | 18-hydroxylation product formation rate | 0.8 ± 0.2 min⁻¹ |
| CO[C@H]1O[C@H](COS(=O)(=O)O)[C@@H](O[C@@H]2O[C@@H](C(=O)O)[C@@H](O[C@H]3O[C@H](COS(=O)(=O)O)[C@@H](O[C@@H]4O[C@H](C(=O)O)[C@@H](O[C@H]5O[C@H](COS(=O)(=O)O)[C@@H](O)[C@H](O)[C@H]5NS(=O)(=O)O)[C@H](O)[C@H]4O)[C@H](OS(=O)(=O)O)[C@H]3NS(=O)(=O)O)[C@H](O)[C@H]2OS(=O)(=O)O)[C@H](O)[C@H]1NS(=O)(=O)O | Beta-2-glycoprotein 1, domain V (APOH, Homo sapiens, UniProt P02749, V266L) | isothermal titration calorimetry | – | concentration not given, 298 K, together with: 150 mM NaCl | – | binding enthalpy ΔH | -4.11 ± 0.637 kcal/mol |

| SMILES | target | assay | test system | setting | scale | endpoint | value |
| --- | --- | --- | --- | --- | --- | --- | --- |
| NC[C@H]1O[C@H](O[C@H]2[C@H](O[C@@H]3O[C@H](CO)[C@@H](O)[C@H]3O)[C@@H](O)[C@H](N)C[C@@H]2N)[C@H](N)[C@@H](O)[C@@H]1O | T1, neomycin riboswitch RNA, 5'-triphosphate, 2',3'-cyclic phosphate | NMR | – | pH 6.2, 10 °C | – | binding | binds |
| C=CC(=O)N1CCC(COCC(=O)N2CCN(c3nc(-c4cnc(N)nc4C(F)F)nc(N4CCOC[C@@H]4C)n3)CC2)CC1 | Mitogen-activated protein kinase kinase kinase 13 (MAP3K13, Homo sapiens, UniProt O43283) | KINOMEscan | – | 1 µM | reference: DMSO control | remaining binding | 78% |
| CC1CCCN(C(=O)c2cc3ncccn3n2)C1 (centres unmarked) | BIRC3 BIR1 domain | binding, affinity selection mass spectrometry | – | – | reference: other proteins in batch | log fold enrichment | 0.135 |
| O=c1nc(SCc2cc(F)cc(C(F)(F)F)c2)nc(SCc2csc3ccc(Cl)cc23)[nH]1 | TOP2A | DNA cleavage | – | 31.25 µM | – | mean linear DNA | 3.83% |
| O=C1N[C@H](c2cncc(C#Cc3ccccc3)c2)[C@@H](c2ccccc2Cl)O1 | Metabotropic glutamate receptor 5 (Macaca mulatta, UniProt A0ACM8QRY8) | PET | rhesus monkey | intravenous, 0.03 mg/kg | – | receptor occupancy | 27% |
| CC[C@@H]1[C@H](F)C(=O)N[C@@H]1COc1nccc2cc(C(N)=O)c(OC)cc12 | Beta-adrenergic receptor kinase 1 (GRK2, Homo sapiens, UniProt P25098) | ATP-site probe binding, ActivX profiling, item: BARK1 | THP-1 cell lysate | 0.04 mM, Lys2 site | – | inhibition | 8% |
| NCCCS(=O)(=O)O | Sodium- and chloride-dependent taurine transporter (SLC6A6, Homo sapiens, UniProt P31641, Y138A) | binding, microscale thermophoresis | – | 46.3 nM, fitted curve | higher = more binding | fraction bound | 0.000419 |
| O=c1nc(SCc2cc(F)cc(C(F)(F)F)c2)nc(SCc2ccc3sccc3c2)[nH]1 | TOP2A | ATPase activity | – | 7.8 µM, together with: ATP 0.075 mM | – | ATP hydrolysis rate | 0.446 µM/min and 0.508 µM/min |
| COc1ccc2c(c1)CN(CCCN1CCN(c3ccccc3OC)CC1)C2=O | HTR2A | radioligand binding | – | concentration not given, together with: [3H]ketanserin | – | inhibition | 77.9% |
| Cc1nc(N)sc1-c1csc(Nc2ccc([N+](=O)[O-])cc2)n1 | Protein-lysine 6-oxidase (Homo sapiens, UniProt P28300) | inhibitor | – | 10 µM, no preincubation | – | enzyme inhibition | inhibited |
| Nc1ccc2cc3ccc(N)cc3nc2c1 | Chymotrypsinogen A, activated (alpha-chymotrypsin) (Bos taurus, UniProt P00766) | isothermal titration calorimetry | – | concentration not given, 25 °C, together with: 0.5 M glycine | – | entropic contribution TΔS° of binding | -17.7 ± 1.24 kcal/mol |
| CN(CCO)c1ccc(/C=C(\C#N)c2ccc(C#N)cc2)cc1 | T2, RNA aptamer | fluorescence titration, Hill fit | – | apparent | – | Kd | 294 nM |
| Nc1nc2c(ncn2[C@@H]2O[C@H](COP(=O)(O)O)[C@@H](O)[C@H]2O)c(=O)[nH]1 | GUK1 | enzyme activity, NADH-coupled | – | 15.62 µM, together with: NaCl 10 mM | – | reaction velocity | 0.0292 µM/s and 0.0148 µM/s and 0.0179 µM/s |
| O=C(O)/C=C/C(=O)O | Uncharacterized protein (Pelagibacter ubique, UniProt Q4FKX4) | differential scanning fluorimetry | Candidatus Pelagibacter ubique | in-house screen | – | thermal shift | 7.11 °C |
| COc1cc(NC(=O)c2ccccn2)ccc1/N=N/c1ccccc1Cl | Metabotropic glutamate receptor 2 (GRM2, Homo sapiens, UniProt Q14416) | positive allosteric modulator, IP accumulation | HEK293 | 30 µM, in the dark, together with: low-dose orthosteric agonist | – | activation | 1.17% |
| [Cl-].[K+] | GUK1 | enzyme activity, NADH-coupled | – | 90 mM | – | reaction velocity | -0.0169 µM/s and -0.0117 µM/s and 0.000403 µM/s |
| CCCCC[S+]([O-])c1n[nH]c(N)n1 (centres unmarked) | BIRC3 BIR1 domain | binding, affinity selection mass spectrometry | – | – | reference: other proteins in batch | fold enrichment | 1.46 |
| Cc1ccc(OC[C@H]2CN(CCN3CCc4ccccc43)CCO2)cn1 | HTR2A | radioligand binding | – | concentration not given, together with: [3H]ketanserin | – | inhibition | 72.1% |
| C[C@@H](O)CNC(C)(C)CC(=O)N[C@@H]1CCc2ccccc2N(Cc2ccc(-c3ccccc3-c3nn[nH]n3)cc2)C1=O | GHSR | intracellular calcium mobilization, agonist | HEK293 cells stably expressing receptor | – | – | Emax | 100% |

Excerpt of the above:
| SMILES | target | assay | test system | setting | scale | endpoint | value |
| --- | --- | --- | --- | --- | --- | --- | --- |
| CN(CCO)c1ccc(/C=C(\C#N)c2ccc(C#N)cc2)cc1 | T2, RNA aptamer | fluorescence titration, Hill fit | – | apparent | – | Kd | 294 nM |
| CC(C)(C)Cn1c(N)nc2ccc(-c3[nH]c(C(C)(C)C)nc3-c3ccc(F)cc3)nc21 | Mitogen-activated protein kinase 12 (MAPK12, Homo sapiens, UniProt P53778) | inhibitor | – | up to 10 µM | – | kinase activity | inactive |
| COc1ccc2c(c1)CN(CCCN1CCN(c3ccccc3OC)CC1)C2=O | HTR2A | radioligand binding | – | concentration not given, together with: [3H]ketanserin | – | inhibition | 77.9% |
| O=c1nc(SCc2cc(F)cc(C(F)(F)F)c2)nc(SCc2csc3ccc(Cl)cc23)[nH]1 | TOP2A | DNA cleavage | – | 31.25 µM | – | mean linear DNA | 3.83% |
